Published values of several laboratories.
A part holds a random share of what one study measured. Substitutions count along the parent as printed.

Study 1
Target: ABI1, truncated, D143A, DHFR fusion (Arabidopsis thaliana)
Technique: DHFR PCA, deep sequencing
Medium: yeast
Setting: methotrexate growth selection, single substitutions
With: (+)-ABA 2500 µM
Reference: wild-type fitted maximum
Reading: higher = stronger binding
Parent: PYL1, truncated, DHFR fusion (Arabidopsis thaliana); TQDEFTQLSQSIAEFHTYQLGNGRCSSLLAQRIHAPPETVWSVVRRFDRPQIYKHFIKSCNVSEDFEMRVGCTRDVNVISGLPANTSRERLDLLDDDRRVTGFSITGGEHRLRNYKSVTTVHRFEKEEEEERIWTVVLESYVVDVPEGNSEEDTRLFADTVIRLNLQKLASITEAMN
Substitution	relative binding score [%]
R163W	58.7
S63W	88
D48H	86.2
R32G	77.1
S59K	93
F66H	90.3
Q7G	105
Q51G	88.6
T101R	24.5
G102R	89.6
Q10N	106
E147H	98.1
S26V	94
G21Y	98.7
R155E	85.4
V118H	111
P83K	19.7

Study 2
Target: RING finger protein unkempt homolog, zinc fingers 1-6, GST-SBP tag (UNK, Homo sapiens, UniProt Q9C0B0, residues 30-357)
Chain of UniProt Q9C0B0 (30-357, looked up): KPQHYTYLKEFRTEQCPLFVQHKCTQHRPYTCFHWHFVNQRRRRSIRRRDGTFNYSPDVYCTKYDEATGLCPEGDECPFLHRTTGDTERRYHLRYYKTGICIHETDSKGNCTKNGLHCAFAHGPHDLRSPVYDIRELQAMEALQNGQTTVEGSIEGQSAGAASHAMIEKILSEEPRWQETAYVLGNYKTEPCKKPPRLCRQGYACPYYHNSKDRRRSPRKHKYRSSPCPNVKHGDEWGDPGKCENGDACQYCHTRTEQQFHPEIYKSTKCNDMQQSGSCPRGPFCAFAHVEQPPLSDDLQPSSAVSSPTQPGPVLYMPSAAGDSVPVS
Technique: RNA Bind-n-Seq
Form: RNA
Medium: in vitro
Concentration: not given
Setting: RNA with constant flanks, ends assumed
Reference: input RNA pool
Reading: higher = stronger binding
Shared flanks, not repeated: GGGAGUUCUACAGUCCGACGAUC … CAACAGAGGAUUGAGCAUCA
Strand	bound/input enrichment [ratio]
AUGGGUGGAUUAUUUUCUCGAUGGAGGGCAAAACCUUCAACAGUAGAAGUUCUAGAAAAUACCGAUAAGGAAAUUCAAGCAUUGGAAGAAUUUAGAGAAAAAAAUCAGAGAUUGCAAAAA	0.774
CCAGUCAGUGGGAGGUAGAAAGGGUGGCAUCUGUAGCCCUCUUCAUACACAUAAGUGGCAUUCCGGUGAAUGUCCCAGCUAAUCACUAGCAUGUCUAGGUAUUGGCUGGGUAGUGGGUAU	0.281
AAUGAACACUUUAAUAUUUUCCUUACUGCUAAGGACCUGAACGCCUACAAGAAGCAAGGGACCGCAUUGCUGACCAGAAUGGGCGAGUCAGUCAAGCACGUCACUGGCGGCUACAAGCUG	0.214
GUCCAGCGCCUGAAUGAACUUGAGGCAAUGACCAGAGUGAGAUUGGAUUUCUUGGAUCAACCCGCAAAAUUUUGGGAACUUCAAGGAUCUACUCUGAAGAUCCCUGUGGUAGAGAGAAAA	0.311
CCAGAAUACACCAAAAAAAUAGAAAACCUCUGUGCUAUGGGUUUUGAUAGGAACGCAGUAACCGUGGCCUUGUCUUCAAAAUCAUGGGAUGUAGAGACUGCAACAGAACUGCUUCUGAGU	0.403
CCUGCCUAAGGCAAAGAAAUAUAAGACAAGACUAUGAUAUCAAUGAAUGUGGGUUAAGUAACCGAUUUCCAGCUAAAUUGGUCUAAAAAAGAAUAUUAAGUGUGGACAGACCUAUUUCAA	0.205
CACAGAGCAGCACCUACCCCCUCCUCCUUUCCACACCUGCAAACUCUUUUACUUGGGCUGAAUAUUCCGUGUAAUUACAUCUCAGCUUUGAGGGCUCCUGUGGCAAAUUCCCGGAUUAAA	0.472
UCUAAUAUUAGCCUUGUCUUUGAUUUUAUGGAAACUGAUCUAGAGGUUAUAAUAAAGGAUAACCGUCUUGUGCUGACACCAUCACACAUCAAAGCCUACAUGUUGAUGACUCUUCAAGGA	0.342

Study 3
Target: Prothrombin, mature alpha-thrombin (F2, Homo sapiens, UniProt P00734)
Technique: aptamer microarray, sandwich
Form: DNA with 2'F-ANA
Medium: in vitro
Concentration: 200 nM
Setting: whole 15-mer aptamer, many near background
With: Cy3 exosite-II aptamer, 400 nM
Reading: higher = stronger binding
Strand: GGTTGGTGTGGTTGG
Modification	mean fluorescence intensity [a.u.]
2'F-ANA at 4 5 7 10 12 13	109
2'F-ANA at 2 3 4 6 8 9 11 13	437
2'F-ANA at 1 2 4 5 8 11 15	52.7
2'F-ANA at 1 2 12 15	470
2'F-ANA at 1 4 6 8 9 10 12 14 15	49.3
2'F-ANA at 7 9 11 12 13	579
2'F-ANA at 1 2 3 4 5 6 8 10 11 12 13 15	56.9
2'F-ANA at 5 6 9 10 13 14	141
2'F-ANA at 1 6 7 8 10 11 12 13 15	88.3
2'F-ANA at 2 4 5 9 10 12 13 14 15	44.5
2'F-ANA at 1 2 4 5 6 7 8 13 14	46.2
2'F-ANA at 1 2 3 7 10 13	78.5
2'F-ANA at 2 8 11 13 14	141
2'F-ANA at 3 4 5 7 8 9 10 11 12 14	60.3
2'F-ANA at 1 3 4 5 6 7 8 10 11 13	49.6
2'F-ANA at 1 2 3 5 6 8 10 11 12	50.2
2'F-ANA at 2 3 4 7 8 10 11 13	247
2'F-ANA at 3 4 6 7 8 11	618
2'F-ANA at 2 3 4 6 8 11 12 13 14	259
2'F-ANA at 3 4 6 7 8 9 10 11 12	278
2'F-ANA at 1 2 7 8 12 15	477
2'F-ANA at 1 4 5 8 10 11 14	50.4
2'F-ANA at 1 2 5 7 10 11 12	48.3
2'F-ANA at 4 8 10 11 12 13	98.3
2'F-ANA at 1 2 4 6 9 11 14 15	62.3

Study 4
Target: ATF3, bZIP domain (human)
Technique: DHFR protein complementation
Medium: yeast
Setting: single substitutions, most at no-binding floor
Reference: wild-type JUN-FOS pair
Reading: higher = stronger binding
Parent: JUN, bZIP domain (human); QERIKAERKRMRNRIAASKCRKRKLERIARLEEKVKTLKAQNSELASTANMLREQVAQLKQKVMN; partner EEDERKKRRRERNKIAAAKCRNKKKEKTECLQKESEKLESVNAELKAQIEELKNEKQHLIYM
Substitution	binding fitness [natural log]
L31Q	-0.601
I28T	-0.198
K34C	-0.365
K34H	0.00943
L38H	-1.32
L45D	-0.984
T48P	-1.47
K39R	0.0341
T48D	-0.374
E44W	-0.321
L31K	-1.09
I28D	-0.322
E54P	-1.11
Q58P	-1.3
T48I	-0.0999
A49R	-0.0297
Q58H	-0.241
L38Y	-0.787

Study 5
Target: CCNB1, cyclin fold, Cln2 fusion (human)
Technique: yeast growth competition, sequencing
Medium: yeast
Setting: weak parent motif
Reference: not given
Reading: higher = stronger binding
Parent: CDKN1A docking peptide (human); SKACRRLFGPVDS
Substitution	normalised enrichment score
SKACRRLAGPVDS [F8A]	-0.123
SKACRRLPGPVDS [F8P]	0.0813
SKACRRKFGPVDS [L7K]	0.505
SKACVRLFGPVDS [R5V]	0.201
SKACRREFGPVDS [L7E]	-0.303
SKACRRLFGVVDS [P10V]	0.000629
SDACRRLFGPVDS [K2D]	0.478
SKACRRLFWPVDS [G9W]	0.289
SKACLRLFGPVDS [R5L]	0.153
SKACRRLFMPVDS [G9M]	0.378
SKVCRRLFGPVDS [A3V]	1.55
SKACRRLFGPSDS [V11S]	0.0702
SKACQRLFGPVDS [R5Q]	0.175
SKACRRLFGPDDS [V11D]	0.726
SKACRRLFRPVDS [G9R]	0.138
SKAYRRLFGPVDS [C4Y]	-0.487
SKACRRLFGPHDS [V11H]	0.228
SKACRRLFGPVPS [D12P]	0.342
SKACRRSFGPVDS [L7S]	0.18
SKACRRPFGPVDS [L7P]	0.0866
SKACRTLFGPVDS [R6T]	0.0858
SKAVRRLFGPVDS [C4V]	0.452
STACRRLFGPVDS [K2T]	0.338
SKAQRRLFGPVDS [C4Q]	0.316
SKAKRRLFGPVDS [C4K]	-0.0489

Study 6
Target: Interferon regulatory factor 5, full length, phosphomimetic (IRF5, Homo sapiens, UniProt Q13568-2, residues 1-514, K96S/S451D/S453D/S456D/S462D)
Technique: protein-binding microarray
Form: double-stranded DNA, one strand shown
Medium: in vitro
Concentration: 250 nM
Setting: 60-bp whole probe
With: salmon DNA 0.4 mg/ml
Reference: random background probes
Reading: higher = stronger binding
Shared flanks, not repeated: GCCTAGCAC … GTCTTGATTCGCTTGACGCTGCTG
Strand	log fluorescence
GACGTACTGGGGTATCGGGACGTGCTA	0.0441 z-score
TTTTCACTTTCTTTAACATAGTGCTAG	6.19 z-score
TCAATTTTCCCTCCCTAACTGTGCTAG	0.885 z-score
GAGGATTCCAGTTTCGAGACGTGCTAG	5.41 z-score
TCATGAGTCCCTATCTCACTGTGCTAG	-0.287 z-score
GAATGTCTTCCCCTCTCTTTGTGCTAG	0.155 z-score
TTAGAACTGGAGACTGGATTAGTGCTA	-0.35 z-score
GACGGTTCCGGGTTTCGGGACGTGCTA	2.1 z-score
GACTATATCAGTTTCGAGACGTGCTAG	6.25 z-score
TTAGGAATGGGTTTCGGTTAGTGCTAG	8.73 z-score
CAGGGTTTCAGATGCGTGAGGTGCTAG	0.162 z-score
TCCTCTTTCTCTGCTACCCTCGTGCTA	1.37 z-score
TTAGGTTTCGCACTGGGTTAGTGCTAG	3.1 z-score
TCAGATATCTTTTTCCTACTGTGCTAG	0.702 z-score
GACGGTTTCCTCATCCTGACGTGCTAG	0.58 z-score
TTAGATTTCAGACTGGATTTGTGCTAG	0.567 z-score
TCAATTTTTTTTCACTAACTGTGCTAG	1.8 z-score
CTTTCTCTGCTCTTTTCAACAGTGCTA	2.12 z-score
CCTATCTTATGATATATATAAGTGCTA	0.671 z-score
TTAGATATTGGGTATCGATTAGTGCTA	3.83 z-score
GACGAACTGACTATCGAGACGTGCTAG	2.12 z-score
TTAGGTTTCCCACTGCTTTAGTGCTAG	0.381 z-score
TGGAGTCTCTGTTCTTTTCAGTGCTAG	0.718 z-score
TCTGTTTTTGCTTTCTTTTTGTGCTAG	2.87 z-score
GACGAACTTAGTATCGAGACGTGCTAG	3.04 z-score

Mixed results
Molecule	target	assay	system	conditions	how to read	quantity	result
PhoQ, residues 284 288 289 292 302 303 QWGLFV	PhoP, residues 12 14 15 18 19 STWGI (Escherichia coli, UniProt P23836)	Sort-seq, measured: YFP reporter	E. coli	PhoQ-PhoP variant library, with: 10 µM Mg2+	reference: high Mg2+ state, higher = stronger signaling	fold induction	0.615

For quick reference, copied from above (study 3):
Modification	mean fluorescence intensity [a.u.]
2'F-ANA at 2 4 5 9 10 12 13 14 15	44.5
2'F-ANA at 1 2 3 5 6 8 10 11 12	50.2
2'F-ANA at 1 2 3 4 5 6 8 10 11 12 13 15	56.9
2'F-ANA at 1 2 4 5 8 11 15	52.7
2'F-ANA at 2 3 4 7 8 10 11 13	247
2'F-ANA at 2 8 11 13 14	141
2'F-ANA at 1 3 4 5 6 7 8 10 11 13	49.6
2'F-ANA at 2 3 4 6 8 9 11 13	437
2'F-ANA at 7 9 11 12 13	579
2'F-ANA at 3 4 6 7 8 9 10 11 12	278
2'F-ANA at 1 2 7 8 12 15	477
2'F-ANA at 4 5 7 10 12 13	109
